Assay results gathered from unrelated publications.
Numbers after ± are the reported error.

SMILES	organism	assay	system	conditions	EC50
CC1=C[C@H](O/C=C2/C(=O)O[C@H]3c4ccccc4C[C@@H]23)OC1=O	Phelipanche ramosa	seed germination	–	–	5.3e-06 µM
CC1(CCCCCCCCCCCCOCCCOP(=O)(O)CO[C@H](CO)Cn2ccc(N)nc2=O)COC1	JC polyomavirus	qPCR	COS-7, MAD-4	7 days	4.2 ± 4.6 µM
C=C(C)[C@@H]1CC[C@]2(C(=O)n3ccnc3)CC[C@]3(C)[C@H](CC[C@@H]4[C@@]5(C)CCCNC(C)(C)[C@@H]5CC[C@]43C)[C@@H]12	Human cytomegalovirus	cytopathic effect	HFF, AD169	–	> 0.24 µM
O=C(CC1CCCCC1)Nc1cc2nc(-c3ccccc3)cn2cn1	Trypanosoma cruzi	–	3T3 host cells, Tulahuen beta-galactosidase	6 days	6.27 µM
CC1(C)CC[C@]23CC[C@]4(C)[C@H](CC[C@@H]5[C@@]6(C)CCCNC(C)(C)[C@@H]6CC[C@]54C)[C@H]2[C@H]1OC3	Human cytomegalovirus	cytopathic effect	HFF, AD169	–	> 30 µM
O=C(Nc1cc2nc(-c3ccccc3)cn2cn1)Oc1ccccc1	Trypanosoma cruzi	–	3T3 host cells, Tulahuen beta-galactosidase	6 days	> 20 µM
C[C@H]1[C@H](C)CC[C@]2(CO)CC[C@]3(C)C(=CC[C@@H]4[C@@]5(C)CCCNC(C)(C)[C@@H]5CC[C@]43C)[C@H]12	Human cytomegalovirus	cytopathic effect	HFF, AD169	–	0.11 µM
COc1ccc(-n2nc3c(=O)n(Cc4cccc(N)c4)nc(C)c3c2C)cc1	Zika virus	viral replication, immunofluorescence	Vero, MR766	24 h	144 ± 3.9 µM
Nc1ncnc2c1c(-c1ccc(C(F)(F)F)c(Cl)c1)cn2[C@@H]1O[C@H](CO)[C@@H](O)[C@H]1O	Trichomonas vaginalis	resorufin	G3, metronidazole-sensitive	24 h + 2 h, 2% O2	0.37 ± 0.01 µM
O=C1C=C[C@@H](O/C=C2/C(=O)O[C@@H]3c4ccccc4C[C@H]23)O1 (racemic)	Phelipanche ramosa	seed germination	–	–	0.00092 µM
Nc1ncnc2c1c(-c1ccc(Cl)cc1F)cn2[C@@H]1O[C@H](CO)[C@@H](O)[C@H]1O	Trichomonas vaginalis	resorufin	G3, metronidazole-sensitive	24 h + 2 h, 2% O2	0.077 ± 0.013 µM
Cc1ccc2nc(-c3ccc(Cl)cc3)c(CN3CCN(c4cccc(C(F)(F)F)c4)CC3)n2c1	Trypanosoma cruzi	–	3T3 host cells, Tulahuen beta-galactosidase	6 days	1.7 µM
CCOC(=O)[C@@H](C)NP(=O)(CO[C@H](CF)Cn1cnc(N)nc1=O)N[C@H](C)C(=O)OCC	human cytomegalovirus	cytopathic effect	HEL, AD-169	–	> 100 µM
CC(=O)Nc1cccc(Cn2nc(C)c3c(C)n(-c4ccccc4)nc3c2=O)c1	Zika virus	viral replication, immunofluorescence	Vero, MR766	24 h	204 ± 3.2 µM
CCOC(=O)c1c(-c2ccc(F)cc2)oc2ncccc12	Trypanosoma cruzi	–	3T3 host cells, Tulahuen beta-galactosidase	6 days	13.8 µM
Cc1ccc(-c2cn([C@@H]3O[C@H](CO)[C@@H](O)[C@H]3O)c3ncnc(N)c23)cc1F	Trichomonas vaginalis	resorufin	G3, metronidazole-sensitive	24 h + 2 h, 2% O2	0.36 ± 0.02 µM
C=C(C)[C@@H]1CC[C@]2(C(=O)N3CCN(C)CC3)CC[C@]3(C)[C@H](CC[C@@H]4[C@@]5(C)CCCNC(C)(C)[C@@H]5CC[C@]43C)[C@@H]12	Human cytomegalovirus	cytopathic effect	HFF, AD169	–	> 30 µM
COc1cc(Br)c(Nc2nc(-c3c(C)nc4ncccn34)cs2)c(Br)c1	Enterovirus A71	viral RNA accumulation, qRT-PCR	Vero or RD	24 h	0.89 µM
CC(C)OC(=O)[C@H](Cc1ccccc1)NP(=O)(COCCn1cnc2c(=O)[nH]c(=O)[nH]c21)N[C@@H](Cc1ccccc1)C(=O)OC(C)C	human cytomegalovirus	cytopathic effect	HEL, AD169	–	63 ± 19 µM
COc1ccc(-n2nc3c(=O)n(Cc4cccc(NC(=O)c5ccccc5)c4)nc(C)c3c2C)cc1	Zika virus	viral replication, immunofluorescence	Vero, MR766	24 h	300 ± 6.5 µM
Cc1ccc(-c2cn([C@H]3C[C@H](O)[C@@H](CO)O3)c3ncnc(N)c23)cc1	Trichomonas vaginalis	resorufin	G3, metronidazole-sensitive	24 h + 2 h, 2% O2	0.65 ± 0.34 µM

SMILES	organism	assay	system	conditions	EC50
COc1ccc(S(=O)(=O)NCc2c[nH]nc2-c2cccs2)cc1	Plasmodium falciparum	parasite growth	HC04, NF54	blood stage	0.816 µM
Cc1cc(-c2cn([C@@H]3O[C@H](CO)[C@@H](O)[C@H]3O)c3ncnc(N)c23)ccc1Cl	Trichomonas vaginalis	resorufin	G3, metronidazole-sensitive	24 h + 2 h, 2% O2	0.14 ± 0.014 µM
COc1ccc(-n2nc3c(=O)[nH]nc(C)c3c2C)cc1	Zika virus	viral replication, immunofluorescence	Vero, MR766	24 h	39.1 ± 1.8 µM
C=C(C)[C@@H]1CC[C@]2(C(N)=O)CC[C@]3(C)[C@H](CC[C@@H]4[C@@]5(C)CCCNC(C)(C)[C@@H]5CC[C@]43C)[C@@H]12	Human cytomegalovirus	cytopathic effect	HFF, AD169	–	> 1.2 µM
Nc1ncnc2c1c(-c1ccc(O)cc1)cn2[C@@H]1O[C@H](CO)[C@@H](O)[C@H]1O	Trichomonas vaginalis	resorufin	G3, metronidazole-sensitive	24 h + 2 h, 2% O2	0.15 ± 0.03 µM
CCOC(=O)[C@@H](C)NP(=O)(CO[C@H](CF)CN1CNC(N)=NC1=O)N[C@H](C)C(=O)OCC	human cytomegalovirus	cytopathic effect	HEL, AD-169	–	> 100 µM
COc1ccccc1-c1n[nH]c2nc(N[C@H]3CC[C@H](NS(=O)(=O)CC(C)C)CC3)ncc12	Leishmania donovani	parasite growth	THP-1	intracellular, amastigote	0.014 µM
Nc1ncnc2c1c(-c1ccc(OC(F)(F)F)cc1)cn2[C@@H]1O[C@H](CO)[C@@H](O)[C@H]1O	Trichomonas vaginalis	resorufin	G3, metronidazole-sensitive	24 h + 2 h, 2% O2	1.99 ± 0.26 µM
Nc1cc2nc(-c3cccc(C(F)(F)F)c3)cn2cn1	Trypanosoma cruzi	–	3T3 host cells, Tulahuen beta-galactosidase	6 days	> 20 µM
COC(=O)c1cccc(-n2nc(C)c3c(C)n(-c4ccccc4)nc3c2=O)c1	Zika virus	viral replication, immunofluorescence	Vero, MR766	24 h	218 ± 3.8 µM
CC1(CCCCCCCCCCOCCCOP(=O)(O)CO[C@H](CO)Cn2ccc(N)nc2=O)COC1	JC polyomavirus	qPCR	COS-7, MAD-4	7 days	0.53 ± 0.66 µM
C=C(C)[C@@H]1CC[C@]2(C(=O)NC(CO)Cc3ccccc3)CC[C@]3(C)[C@H](CC[C@@H]4[C@@]5(C)CCCNC(C)(C)[C@@H]5CC[C@]43C)[C@@H]12 (stereo partly drawn)	Human cytomegalovirus	cytopathic effect	HFF, AD169	–	> 1.2 µM
Cc1nn(-c2cccc(C(=O)O)c2)c(=O)c2nn(-c3ccccc3)c(C)c12	Zika virus	viral replication, immunofluorescence	Vero, MR766	24 h	> 1000 µM
CN(C)Cc1cc(/C=C/C(=O)c2ccc(Cl)cc2)ccc1O	Plasmodium knowlesi	parasite growth	–	24 h, blood stage	2.98 µM
Nc1ncnc2c1c(-c1ccccc1Cl)cn2[C@@H]1O[C@H](CO)[C@@H](O)[C@H]1O	Trichomonas vaginalis	resorufin	G3, metronidazole-sensitive	24 h + 2 h, 2% O2	9.6 ± 0.3 µM
Fc1ccc(-c2cn3cccnc3n2)cc1F	Trypanosoma cruzi	–	3T3 host cells, Tulahuen beta-galactosidase	6 days	> 20 µM
O=C1OC2(c3ccccc31)c1cc(I)c(O)c(I)c1Oc1c2cc(I)c(O)c1I	Zika virus	viral replication, plaque reduction	A549, PRVABC59	–	0.62 µM
CCOC(=O)c1c(C)oc2nc(N3CC[C@H](F)C3)ccc12	Trypanosoma cruzi	–	3T3 host cells, Tulahuen beta-galactosidase	6 days	17.3 µM
CC1(CCCCCCCCCCCCCCOCCCOP(=O)(O)CO[C@H](CO)Cn2ccc(N)nc2=O)COC1	JC polyomavirus	qPCR	COS-7, MAD-4	7 days	> 25.5 µM
O=C(Nc1cc2nc(-c3cccc(C(F)(F)F)c3)cn2cn1)N1CC[C@H](F)C1	Trypanosoma cruzi	–	3T3 host cells, Tulahuen beta-galactosidase	6 days	0.08 µM
Cc1nn(Cc2cccc(NC(=O)c3ccccc3)c2)c(=O)c2nn(-c3ccccc3)c(C)c12	Zika virus	viral replication, immunofluorescence	Vero, MR766	24 h	140 ± 13.7 µM

A few entries again:
SMILES	organism	assay	system	conditions	EC50
CC(C)OC(=O)[C@H](Cc1ccccc1)NP(=O)(COCCn1cnc2c(=O)[nH]c(=O)[nH]c21)N[C@@H](Cc1ccccc1)C(=O)OC(C)C	human cytomegalovirus	cytopathic effect	HEL, AD169	–	63 ± 19 µM
COc1ccc(-n2nc3c(=O)n(Cc4cccc(NC(=O)c5ccccc5)c4)nc(C)c3c2C)cc1	Zika virus	viral replication, immunofluorescence	Vero, MR766	24 h	300 ± 6.5 µM
Cc1ccc(-c2cn([C@H]3C[C@H](O)[C@@H](CO)O3)c3ncnc(N)c23)cc1	Trichomonas vaginalis	resorufin	G3, metronidazole-sensitive	24 h + 2 h, 2% O2	0.65 ± 0.34 µM
COc1ccc(S(=O)(=O)NCc2c[nH]nc2-c2cccs2)cc1	Plasmodium falciparum	parasite growth	HC04, NF54	blood stage	0.816 µM
Cc1cc(-c2cn([C@@H]3O[C@H](CO)[C@@H](O)[C@H]3O)c3ncnc(N)c23)ccc1Cl	Trichomonas vaginalis	resorufin	G3, metronidazole-sensitive	24 h + 2 h, 2% O2	0.14 ± 0.014 µM
COc1ccc(-n2nc3c(=O)[nH]nc(C)c3c2C)cc1	Zika virus	viral replication, immunofluorescence	Vero, MR766	24 h	39.1 ± 1.8 µM
